Measurements from different studies.
Every numbered part comes from another study and shows a few of its results, in no order. Positions count from the first letter of the parent shown.

Study 1
Target: RING finger protein unkempt homolog, zinc fingers 1-6, GST-SBP tag (UNK, Homo sapiens, UniProt Q9C0B0, residues 30-357)
Chain of UniProt Q9C0B0 (30-357, looked up): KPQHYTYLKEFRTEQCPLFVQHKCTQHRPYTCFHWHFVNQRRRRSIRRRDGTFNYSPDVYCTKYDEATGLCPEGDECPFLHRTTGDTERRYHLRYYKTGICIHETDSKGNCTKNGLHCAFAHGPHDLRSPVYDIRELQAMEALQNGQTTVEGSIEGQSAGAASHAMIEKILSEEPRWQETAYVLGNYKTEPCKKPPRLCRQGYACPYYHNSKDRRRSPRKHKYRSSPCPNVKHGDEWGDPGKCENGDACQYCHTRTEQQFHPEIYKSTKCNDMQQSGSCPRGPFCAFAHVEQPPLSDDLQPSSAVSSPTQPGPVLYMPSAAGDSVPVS
Method: RNA Bind-n-Seq
Form: RNA
Medium: in vitro
Tested at: not given
Notes: RNA with constant flanks, human-mouse chimeric sites, ends assumed
Reference: input RNA pool
Direction: higher = stronger binding
Strand | bound/input enrichment [ratio]
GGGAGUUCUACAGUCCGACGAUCCUGUGUGGCUUACUAAAAUGGCUUGUAAAGAAGUUUUUCCAAGCUGUAACCCAUGCUGUUAUUAUAGUUGCUGCAAAAUGUUCUUCCUGAUAUUGAUUUUAUUUGUUAACUGAAGGUCUCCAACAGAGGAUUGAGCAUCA | 0.521
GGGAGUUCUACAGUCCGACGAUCGAGUCGAUUAUGGAAACAACUACAGAAUAUCUUGCAGCCUCAGUGUUCACUUGCUUGGCGAUAGCAUUGGGGUUUUAUAGGUUCUGGAAGGAGAACUGACGAUGAUGCUGCCGCUGCUGCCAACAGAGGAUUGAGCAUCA | 0.179
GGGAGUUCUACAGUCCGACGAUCCUGGGUAUCAUCUCUCGAGCUGUUAAACACCUGUUCAAGAGUAUUGAUGAGAAAAAGACCUCAGCGAUUAAAAACGGGCUGCCCCCUCCUGAAUUCAAAGUGAAUGCCCAGUUCCUAGAGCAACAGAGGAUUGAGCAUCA | 0.32
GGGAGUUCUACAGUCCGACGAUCUUACCCGAAAAUGAAGAUGAGCUGGAGAGCACCAACAGGCGCUACACCAAGAGAGACUGCAGCACUUUCCUCAGAACUAGUGAGACGGGCAUCGUGGACCAGGUCAUGGUCACUCUCAACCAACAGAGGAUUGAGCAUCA | 0.26
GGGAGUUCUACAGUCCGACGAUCUGUGAACUGUCUCUUGAUUGGGGUCUACAAGAUGACUUUUCCUGGCACAUAUUCCAAAGCAUAGACUUUGUUGCCUGCUGCUUAUUGUCUAAUUUACAGGGAUAUUUAAUUUUGUCAGGUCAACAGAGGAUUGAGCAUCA | 0.387
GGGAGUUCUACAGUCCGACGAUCGACUUUGGAACUGGUCCUCGCAACGCAGCCUUCUAUAGCCCUCAUGGACAUAUAUUAGUGCUGGCUGGAUUUGGAAAUCUUCGAGGACAAAUGGAAGUAUGGGAUGUUAAAAACUACAAGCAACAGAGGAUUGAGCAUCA | 0.439
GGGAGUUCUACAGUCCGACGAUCUAUCCAACUUUCUUGCCACAUUUUGAAUUCCAAGACAUUAUUCCUCCAGAUGACUUCCUAACUAGUGAUGAAGAGCAAGAUUUGGUUUUAUUUGGAACUAUGAGAGGACAAGUUGUUGGACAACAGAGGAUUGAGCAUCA | 0.277
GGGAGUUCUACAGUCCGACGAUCUAAGUUAUUUUGUACAGCUUUGUAAAUUCUUAACAUUAAUUUGUAAACAUGUUUAUUUUGUUUGGGUGCUUUAUUAAAUUAAGUACAUAGCUAAGGUAAUGAACAUCUUUUUCAGUAAUUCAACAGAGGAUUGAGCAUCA | 0.447
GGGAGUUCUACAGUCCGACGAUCGAUCUCGGGCCCUCCCCAGGGGCCUCCUUUCGUAUAGUCACUGCUUCUGCAUCAGAUACUUUCAGCUGCAACUCCCUACUGGGUGGGGCACCCAUUUCAGGCAGAAGGUUUUGGUACCCUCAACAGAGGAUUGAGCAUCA | 0.223
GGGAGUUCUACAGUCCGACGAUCUCUUAACUUAUUCAUUUAACUUAUUUUUAUAGCUAGAUAAAUAUUGUUAGUCUUAGUCAAUAGCUCACAUUUUUUGAGAAGCAUGCCCUCCCUGUCCAUUGGGCCCAUAACAUGACCCAGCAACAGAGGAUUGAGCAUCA | 39.9
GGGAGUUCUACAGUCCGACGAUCACAGUUAUAUUGUUGAGUUUCAUUUUCAUAUAUUCUUGUAGUGUCUGCUUGCCUGUGACUUCUGGUAAAAUAAAAUAUUAAAAUUACAAUAUUUUAGCAUGGUAUUUUUCUAAAAAUAAACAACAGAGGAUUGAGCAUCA | 0.868

Study 2
Target: CCND1, cyclin fold, Cln2 fusion (human)
Method: yeast growth competition, sequencing
Medium: yeast
Notes: weak parent motif
Reference: not given
Direction: higher = stronger binding
Starting sequence: CDKN1C docking peptide (human); TSACRSLFGPVDH; partner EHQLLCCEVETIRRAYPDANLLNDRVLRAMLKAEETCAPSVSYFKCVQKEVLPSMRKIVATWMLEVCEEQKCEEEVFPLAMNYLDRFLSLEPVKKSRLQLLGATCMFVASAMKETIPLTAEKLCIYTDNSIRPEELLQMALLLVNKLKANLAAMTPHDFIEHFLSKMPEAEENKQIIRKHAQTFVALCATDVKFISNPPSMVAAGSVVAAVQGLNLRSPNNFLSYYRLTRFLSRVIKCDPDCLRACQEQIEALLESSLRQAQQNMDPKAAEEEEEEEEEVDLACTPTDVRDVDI
Change | normalised enrichment score
TSACRSLFGPADH [V11A] | 1.23
TSACRSLFAPVDH [G9A] | 0.878
TSACASLFGPVDH [R5A] | -0.0976
TSACKSLLGPVDH [R5K F8L] | -0.256
TSACRSLLGPVDH [F8L] | -0.129
TSACRALFGPVDH [S6A] | 1.45
TSACASAFGPVDH [R5A L7A] | 0.068
TAACRSLFGPVDH [S2A] | 0.869
TSACRSLFGPVAH [D12A] | 0.377

Study 3
Target: ABI1, truncated, D143A, DHFR fusion (Arabidopsis thaliana)
Method: DHFR PCA, deep sequencing
Medium: yeast
Notes: methotrexate growth selection, single substitutions
Added: (+)-ABA 2500 µM
Reference: wild-type fitted maximum
Direction: higher = stronger binding
Starting sequence: PYL1, truncated, DHFR fusion (Arabidopsis thaliana); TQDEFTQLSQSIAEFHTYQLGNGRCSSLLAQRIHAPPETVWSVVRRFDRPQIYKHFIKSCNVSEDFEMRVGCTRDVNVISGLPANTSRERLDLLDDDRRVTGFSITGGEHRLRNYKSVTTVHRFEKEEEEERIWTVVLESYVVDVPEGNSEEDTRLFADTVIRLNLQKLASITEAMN; partner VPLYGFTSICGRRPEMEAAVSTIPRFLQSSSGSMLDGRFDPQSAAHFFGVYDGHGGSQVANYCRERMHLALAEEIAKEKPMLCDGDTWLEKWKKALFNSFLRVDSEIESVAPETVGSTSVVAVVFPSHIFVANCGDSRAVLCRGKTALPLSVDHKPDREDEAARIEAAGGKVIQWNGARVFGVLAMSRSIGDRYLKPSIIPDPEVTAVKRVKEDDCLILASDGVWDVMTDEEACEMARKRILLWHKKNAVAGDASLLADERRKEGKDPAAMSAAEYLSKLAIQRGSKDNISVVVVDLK
Change | relative binding score [%]
L29T | 95.2
C25V | 99.3
G108C | 83.1
L82M | 92.2
I12M | 93.5
G148N | 99.4
R49H | 95.5
T39G | 90.8
W41Y | 82.4
S42I | 85.3
A35D | 25.4
T17A | 99.7
E139Q | 91.9
E174M | 93.2
P146V | 81.9

Study 4
Target: Sal-like protein 4, full length isoform B (SALL4, Homo sapiens, UniProt Q9UJQ4-2, residues 1-616)
Method: universal PBM
Form: double-stranded DNA, one strand shown
Medium: in vitro
Tested at: not given
Notes: 8-mer, flanks averaged, mean of replicates
Direction: higher = stronger binding
Strand | E-score
CACATCCC | -0.0654
CGACATGA | 0.0237
TGCGGGAA | -0.153
CCAAGCGC | -0.16
GGCGGCCA | -0.262
CCAATACG | 0.122
AAAAAAGT | 0.191
TAGGGGAA | 0.00463
CTTCGTCC | -0.199
CACATCTG | -0.0254
CGCAGGAC | -0.237
AAGGGCCG | -0.279
GATCTCGA | -0.204
GTCCAAGA | -0.21
CGCTAGTA | 0.054
AATTCAGG | 0.126
AGTAAACC | -0.0151
GCCTCGCC | -0.365
GGCAACAA | 0.11
GTCACTGA | -0.0568
AACTGACT | -0.084
TCAGAAAA | 0.179
ACTAGTAG | 0.157
